Experimental data from different studies.
Compare with care: the assays were run in different laboratories. Values joined by “and” are separate records of one study, mostly repeats; a detail may differ.

CC(C)c1ccc(N(C)c2ccc3c(c2)OCC[C@H]3CNc2cnccc2C(=O)O)cc1 — IC50 (NCI-H1437; cell growth or viability, ATP luminescence; 7 days): 0.0131 µM
CC(Br)C(=O)NC12CCCC(C)(CCC3C1CC3(C)C)C2 (centres unmarked) — inhibition (HT-29; cell growth or viability, CCK-8; 300 µM): 96.6%
CN1CC[C@@H](COc2cnc(C#N)cc2-c2ccn3nc(NC(=O)C4CC4)cc3c2)C1 — number of upregulated genes (human PBMC, CD4 T cells; single-cell RNA-seq; 1 µM, together with: LPS; reference: LPS alone): 75 genes
C[C@@H]1CC[C@@H]([C@](O)(CNCc2ccc(F)cc2)COCc2ccccc2)[C@H](OCc2ccccc2)C1 — inhibition (A2780; cell growth or viability, MTT; 30 µM, 72 h): 99.9%
CN1CCCNC(=O)c2cccc(c2)C(=O)NCCCN(C)CCCNc2cccc3c2C(=O)c2cccc(c2C3=O)NCCC1 — log2 fold change (SAS; RNA-Seq, item: CTPS1 mRNA; 1 µM, 6 h; reference: untreated cells): -1.13
COC1CCN(C(=O)/C=C/c2nn(Cc3cccc(C(F)(F)F)c3)c3nc(NC(C)C)ncc23)CC1 — EC50 (FLO-1; cell growth or viability, resazurin; 5 days): 3.9 µM
CCN(CC)CC(=O)Nc1cccc(-n2cc(-c3ccc4ccc(-c5cn(-c6cccc(NC(=O)CN(CC)CC)c6)nn5)cc4c3)nn2)c1 — fold regulation (RCC4; PCR angiogenesis array, item: PROK2; 5 x IC50, 6 h, normoxia; reference: untreated): 1.06
Cc1cc(Cl)cc(-c2ccnc3cc(CN4C(=O)C5C(C4=O)C5(C)C)sc23)c1C[C@@H]1CNCCO1 (some centres unmarked) — apoptotic cells (early plus late) (CHP-212 resistant cells (pooled); annexin V-PI flow cytometry; 1 µM, 48 h): 7.11% and 13.4% and 16.4%
CCC(=CCc1c(O)cc2c(c1O)C(=O)CC(c1cc(O)ccc1OC)O2)CC (centres unmarked) — inhibition (HeLa; cell growth or viability, MTT; 0.781 µM, 48 h): 0.252%
CC(=O)N[C@@H](Cc1ccc(O)cc1)C(=O)N1CSC[C@H]1C(=O)N[C@@H](C)C(=O)N[C@@H](CC(=O)O)C(=O)COC(=O)c1c(C)cccc1C — cell lysis (THP-1 cells, LPS-primed; pyroptosis, LDH release; 25 µM, LPS 1 µg/mL, 4 h, together with: nigericin 5 µM, 2 h): 39.3% and 41%
CC12CCCC(NS(=O)(=O)c3ccc(CCN)cc3)(C1)C1CC(C)(C)C1CC2 (centres unmarked) — inhibition (HT-29; cell growth or viability, CCK-8; 10 µM): < 50%
CC(C)(C)c1ccc([C@H](O)C[C@H](CO)NC(=O)CCCCCOc2ccc3ccccc3c2)cc1 — SM/Cer ratio (HeLa; HPLC-MS-MS lipidomics, item: C20 SM and ceramide; 1 µM, 24 h; reference: SM over Cer): 23 ,0 and 20 ,0
COc1ccc2c(c1)OC1=C(C(=O)CCC1)C2c1c[nH]c2ccccc12 (centres unmarked) — mean lipid content (3T3-L1 mature adipocytes; lipolysis, Oil Red O staining; IC20): 0.725 OD492
O=S(=O)(N[C@H]1CCO[C@@H](C2c3ccccc3CCc3ccccc32)C1)c1ccc(OC(F)(F)F)cc1 — CCR2 protein level (D341; immunoblot; concentration not given): decreased
Cc1ncsc1-c1ccc(C(C)NC(=O)C2CC(O)CN2C(=O)C(NC(=O)CCCCCCCCCCN2CCCC(Nc3ncc(Cl)c(Nc4ccccc4S(=O)(=O)C(C)C)n3)C2)C(C)(C)C)cc1 (centres unmarked) — log2 fold change (22Rv1; RNA-seq, item: TNFRSF1A mRNA; concentration not given; reference: DMSO): -1.01
CCC(=CCc1c(O)cc2c(c1O)C(=O)CC(c1ccc(OC)c(O)c1)O2)CC (centres unmarked) — inhibition (HeLa; cell growth or viability, MTT; 6.25 µM, 48 h): 17.2%
O=C(C[Se]C(=O)c1cc2ccccc2[nH]1)Nc1cccc(C(F)(F)F)c1 — mean growth percent (NCI60 leukemia subpanel; cell growth; 10 µM, 48 h, one-dose): -81.6%
